# Results gathered from unrelated publications.
# A part holds a random share of what one study measured. Substitutions count along the parent as printed.

# Study 1
# Target: Histone acetyltransferase KAT6A, both winged helices, GST fusion (KAT6A, Homo sapiens, UniProt Q92794, residues 1-181)
# Technique: protein binding microarray
# Molecule type: double-stranded DNA, one strand shown
# Sample: in vitro
# Tested at: not given
# Setting: 8-mer, flanks averaged, mean of 2 arrays, mostly near background
# Baseline: not given
# Direction: higher = stronger binding
# Target sequence (chain): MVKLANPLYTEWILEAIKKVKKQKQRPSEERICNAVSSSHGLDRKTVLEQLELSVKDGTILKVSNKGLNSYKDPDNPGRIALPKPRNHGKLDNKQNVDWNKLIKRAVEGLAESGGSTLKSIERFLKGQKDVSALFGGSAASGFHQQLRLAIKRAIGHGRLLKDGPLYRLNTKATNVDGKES
Oligonucleotide,E-score
GATGAGGA,-0.146
AATGCCGC,0.32
ATTAAGAC,-0.0798
AGCACACA,-0.254
ACGATAGA,-0.00934
GGGGGGAA,-0.209
AGATACAG,-0.0568

# Study 2
# Target: Interferon regulatory factor 7, full length, phosphomimetic (IRF7, Homo sapiens, UniProt Q92985, residues 1-503, S471D/S472D/S475D/S476D/S477D/S483D/S484D/S487D)
# UniProt Q92985, sequence (whole entry, unmodified, looked up): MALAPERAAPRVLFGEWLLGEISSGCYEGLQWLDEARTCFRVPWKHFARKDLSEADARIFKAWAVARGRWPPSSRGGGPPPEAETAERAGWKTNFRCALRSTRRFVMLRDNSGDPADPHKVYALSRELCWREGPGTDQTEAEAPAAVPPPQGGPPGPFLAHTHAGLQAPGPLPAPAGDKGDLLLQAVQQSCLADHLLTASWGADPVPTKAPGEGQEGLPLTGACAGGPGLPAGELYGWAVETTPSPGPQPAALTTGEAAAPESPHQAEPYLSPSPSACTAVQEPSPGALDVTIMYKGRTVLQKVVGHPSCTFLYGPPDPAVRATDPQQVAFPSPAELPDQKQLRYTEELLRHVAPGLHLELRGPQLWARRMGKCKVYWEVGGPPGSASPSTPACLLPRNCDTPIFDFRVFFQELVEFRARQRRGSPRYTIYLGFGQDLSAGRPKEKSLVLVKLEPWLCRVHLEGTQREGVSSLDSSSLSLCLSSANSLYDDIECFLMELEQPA
# Technique: protein-binding microarray
# Molecule type: double-stranded DNA, one strand shown
# Sample: in vitro
# Tested at: 2200 nM top
# Setting: 60-bp whole probe
# Added: salmon DNA 0.4 mg/ml
# Baseline: random background probes
# Direction: higher = stronger binding
# Constant ends, left off below: GCCTAGCAC … GTCTTGATTCGCTTGACGCTGCTG
Oligonucleotide,fitted relative affinity [z-score]
GAAATTCTCATTTCCAATTAGTGCTAG,1.56
TCAACTTTCCAAAACATACTGTGCTAG,1.25
GACGGACTGAGACTGGAGACGTGCTAG,-0.455
TCACATTCTGAATTCGAACTGTGCTAG,2.1
TCAGCTCACACCTGTCATACTGTGCTA,0.81
TCAACTTCTCTTTTGGCACTGTGCTAG,1.56
TGAGGTATCGGGACTGGGTTAGTGCTA,-0.591
TTTGATTTCAGACTGGATTAGTGCTAG,0.686
GATGGTTTCGGGACTGGGGACGTGCTA,3.61

# Study 3
# Target: CCNB1, cyclin fold, Cln2 fusion (human)
# Technique: yeast growth competition, sequencing
# Sample: yeast
# Setting: weak parent motif
# Baseline: not given
# Direction: higher = stronger binding
# Parent: CDKN1A docking peptide (human); SKACRRLFGPVDS
Change,normalised enrichment score
SKACRALFGPVDS [R6A],0.239
SKACPRLFGPVDS [R5P],-0.223
SVACRRLFGPVDS [K2V],0.631
SKTCRRLFGPVDS [A3T],0.523
SKAWRRLFGPVDS [C4W],0.171
SKASRRLFGPVDS [C4S],0.0829

# Further values, each from its own experiment
Substance,target,test,system,conditions,how to read,measurement,value
"PhoQ, residues 284 288 289 292 302 303 SLKLQV","PhoP, residues 12 14 15 18 19 NHFRA (Escherichia coli, UniProt P23836)","Sort-seq, item: YFP reporter",E. coli,"PhoQ-PhoP variant library, added: 10 µM Mg2+","baseline: high Mg2+ state, higher = stronger signaling",fold induction,13.7

# A few entries again (study 1):
Oligonucleotide,E-score
GGGGGGAA,-0.209
ATTAAGAC,-0.0798
